Measured values gathered from unrelated publications.
Protocols differ between the studies behind these lines. Numbers after ± are the reported error.

Amino acid sequences for entries named in this document (tags omitted). Chains listed by the source or under a name are the forms on record and can include a tag or linker. Residues count along the entry.
UniProt P10636, 623-758 limits assumed: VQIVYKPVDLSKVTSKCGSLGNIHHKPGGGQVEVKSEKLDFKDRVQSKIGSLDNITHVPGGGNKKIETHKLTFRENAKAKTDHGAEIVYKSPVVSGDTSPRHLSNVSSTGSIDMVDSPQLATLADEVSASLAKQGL
UniProt P51452, whole entry: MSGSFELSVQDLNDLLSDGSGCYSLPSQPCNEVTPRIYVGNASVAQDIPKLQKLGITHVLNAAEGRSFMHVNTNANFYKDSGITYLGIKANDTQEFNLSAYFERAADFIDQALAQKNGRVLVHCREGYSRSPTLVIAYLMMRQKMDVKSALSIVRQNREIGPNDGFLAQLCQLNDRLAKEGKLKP
UniProt O14618, 11-74 limits assumed: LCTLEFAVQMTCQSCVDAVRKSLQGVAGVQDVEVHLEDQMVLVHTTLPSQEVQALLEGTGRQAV
UniProt P01139, 122-241 limits assumed: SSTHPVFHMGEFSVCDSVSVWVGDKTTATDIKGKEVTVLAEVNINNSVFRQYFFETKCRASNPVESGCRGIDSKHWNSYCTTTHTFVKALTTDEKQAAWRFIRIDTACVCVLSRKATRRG
UniProt Q9Y508, whole entry: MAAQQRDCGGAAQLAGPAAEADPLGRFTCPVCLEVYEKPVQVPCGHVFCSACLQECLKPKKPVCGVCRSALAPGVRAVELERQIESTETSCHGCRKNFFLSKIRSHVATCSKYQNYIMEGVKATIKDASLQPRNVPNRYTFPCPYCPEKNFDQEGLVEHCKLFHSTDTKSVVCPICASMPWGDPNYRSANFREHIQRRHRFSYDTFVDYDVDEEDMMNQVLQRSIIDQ
UniProt P10688, 11-140 limits assumed: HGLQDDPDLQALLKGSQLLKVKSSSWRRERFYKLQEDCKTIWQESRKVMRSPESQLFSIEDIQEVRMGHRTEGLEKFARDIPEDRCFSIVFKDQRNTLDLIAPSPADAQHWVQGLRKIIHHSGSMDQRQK
UniProt Q15059, whole entry, looked up: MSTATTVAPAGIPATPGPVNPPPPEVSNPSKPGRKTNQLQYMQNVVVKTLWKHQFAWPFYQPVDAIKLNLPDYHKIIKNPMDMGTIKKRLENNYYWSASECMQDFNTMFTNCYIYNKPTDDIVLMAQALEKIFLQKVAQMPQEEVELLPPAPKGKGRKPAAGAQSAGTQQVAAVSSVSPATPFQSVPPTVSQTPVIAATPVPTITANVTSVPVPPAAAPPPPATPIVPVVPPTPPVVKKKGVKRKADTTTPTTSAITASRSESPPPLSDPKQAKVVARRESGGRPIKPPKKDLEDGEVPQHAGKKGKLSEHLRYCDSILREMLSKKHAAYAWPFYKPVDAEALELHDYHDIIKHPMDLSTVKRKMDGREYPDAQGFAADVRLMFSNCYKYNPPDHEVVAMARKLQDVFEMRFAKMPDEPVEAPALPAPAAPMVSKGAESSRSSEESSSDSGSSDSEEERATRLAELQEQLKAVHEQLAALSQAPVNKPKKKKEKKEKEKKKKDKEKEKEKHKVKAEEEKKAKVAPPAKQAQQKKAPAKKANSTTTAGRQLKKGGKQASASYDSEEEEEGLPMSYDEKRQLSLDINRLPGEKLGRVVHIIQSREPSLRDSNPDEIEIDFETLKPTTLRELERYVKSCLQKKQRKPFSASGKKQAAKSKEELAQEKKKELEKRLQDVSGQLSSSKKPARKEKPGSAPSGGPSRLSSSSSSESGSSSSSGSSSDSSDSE
UniProt P31749, 1-149 with tags or gaps DEL38-52 limits assumed: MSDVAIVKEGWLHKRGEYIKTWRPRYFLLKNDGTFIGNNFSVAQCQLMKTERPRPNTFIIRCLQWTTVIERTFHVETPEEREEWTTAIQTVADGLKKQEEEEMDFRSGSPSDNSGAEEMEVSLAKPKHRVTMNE
UniProt P30542, whole entry: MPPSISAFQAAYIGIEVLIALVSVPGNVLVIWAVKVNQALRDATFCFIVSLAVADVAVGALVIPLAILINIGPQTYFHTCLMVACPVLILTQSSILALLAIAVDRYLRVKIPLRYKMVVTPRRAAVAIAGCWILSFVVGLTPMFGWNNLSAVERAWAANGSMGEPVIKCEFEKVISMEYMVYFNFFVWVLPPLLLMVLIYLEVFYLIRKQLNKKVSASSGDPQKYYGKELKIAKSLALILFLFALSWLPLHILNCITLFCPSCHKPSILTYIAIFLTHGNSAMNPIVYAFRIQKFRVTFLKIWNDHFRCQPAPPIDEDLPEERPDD
UniProt P04150, whole entry: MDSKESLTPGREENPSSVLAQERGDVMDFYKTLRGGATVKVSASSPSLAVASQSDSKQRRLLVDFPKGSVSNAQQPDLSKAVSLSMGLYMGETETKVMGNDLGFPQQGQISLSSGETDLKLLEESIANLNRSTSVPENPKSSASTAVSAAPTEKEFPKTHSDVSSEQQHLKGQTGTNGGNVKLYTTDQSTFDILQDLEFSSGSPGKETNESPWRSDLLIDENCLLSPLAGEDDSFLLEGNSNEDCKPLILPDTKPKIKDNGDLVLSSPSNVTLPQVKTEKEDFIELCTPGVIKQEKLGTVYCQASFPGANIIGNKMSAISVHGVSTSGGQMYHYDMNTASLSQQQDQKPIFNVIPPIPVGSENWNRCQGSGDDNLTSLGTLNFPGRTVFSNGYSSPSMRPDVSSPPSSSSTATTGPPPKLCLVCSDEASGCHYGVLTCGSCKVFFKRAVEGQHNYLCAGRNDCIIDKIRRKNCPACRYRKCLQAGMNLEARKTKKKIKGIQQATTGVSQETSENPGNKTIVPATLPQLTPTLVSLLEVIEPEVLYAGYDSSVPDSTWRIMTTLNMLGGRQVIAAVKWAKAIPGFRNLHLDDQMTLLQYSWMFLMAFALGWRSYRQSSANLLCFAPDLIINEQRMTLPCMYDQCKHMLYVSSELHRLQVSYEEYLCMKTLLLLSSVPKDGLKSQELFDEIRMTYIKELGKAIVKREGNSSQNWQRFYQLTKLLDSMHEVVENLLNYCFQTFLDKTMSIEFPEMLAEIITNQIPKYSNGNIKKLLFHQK
UniProt Q16539, whole entry: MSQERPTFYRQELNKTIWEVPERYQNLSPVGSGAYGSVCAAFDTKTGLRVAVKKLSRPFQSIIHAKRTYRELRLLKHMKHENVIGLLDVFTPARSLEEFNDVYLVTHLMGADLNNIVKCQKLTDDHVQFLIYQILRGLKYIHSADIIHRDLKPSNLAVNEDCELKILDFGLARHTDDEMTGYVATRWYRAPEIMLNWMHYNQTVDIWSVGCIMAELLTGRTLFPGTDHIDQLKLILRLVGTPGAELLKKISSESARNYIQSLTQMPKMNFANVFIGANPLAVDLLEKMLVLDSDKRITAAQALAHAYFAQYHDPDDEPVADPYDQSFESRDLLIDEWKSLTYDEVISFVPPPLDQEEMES

Structure (SMILES) | tested on | test | system | setting | measurement | result
Fc1cc(-c2ccc3c(n2)[nH]c2ccncc23)ccn1 [isotope labelled] | Microtubule-associated protein tau, paired helical filaments (MAPT, Homo sapiens, UniProt P10636) | binding, radioligand binding | AD brain PHF homogenate |  | Kd | 0.021 µM
O=C1C=C(NCCc2cc(Br)c(O)c(Br)c2)C(=O)c2ncccc21 | actin | SPR |  |  | Kd | 603 µM
COc1cc(CC(=O)NCC(NC(=O)C(CCCNC(=O)c2cccc(I)c2)NC(=O)C(Cc2ccc(C(F)(F)P(=O)(O)O)cc2)NC(=O)c2ccc(C)c(Br)c2)C(N)=O)ccc1O (stereo not drawn) | DUSP3 (Homo sapiens, UniProt P51452) | enzyme activity |  | 10 µM | inhibition | no inhibition
O=S(=O)(c1ccc(O)cc1O)N1Cc2ccc(O)cc2C1 | PDK2 (Homo sapiens, UniProt Q15119) | isothermal titration calorimetry |  |  | Kd | 0.494 µM
Nc1c(C(=O)Nc2c(F)cc(F)cc2Br)sc2nc3c(cc12)CCC3 | Copper chaperone for superoxide dismutase, domain I (CCS, Homo sapiens, UniProt O14618) | binding, fluorescence anisotropy |  |  | Kd | 12.2 µM
O=C(Nc1cccnn1)N1CC(Oc2ccc(-c3ccccc3F)cn2)C1 |  | measured: plasma endocannabinoids | human, plasma | oral, after day 7 dose, repeated daily dosing | time to return to baseline | ≤ 72 h
CS(=O)(=O)c1ccc(NC(=O)CSc2nnc(-c3ccccc3F)n2-c2ccccc2)cc1 | Cyclin-dependent kinase 2, part with cyclin A (CDK2, Homo sapiens, UniProt P24941) |  |  |  | Kd | > 100 µM
O=C1c2cccc3cc([N+](=O)[O-])cc(c23)C(=O)N1NCCO | Beta-nerve growth factor (Mus musculus, UniProt P01139) | binding, SPR |  | 25 °C | Kd | 49.7 µM
Nc1ncnc2c1ncn2[C@@H]1O[C@H](COP(=O)(O)OP(=O)(O)OC[C@H]2OC(O)[C@H](O)[C@@H]2O)[C@@H](O)[C@H]1O (stereo partly drawn) | RNF114 (Homo sapiens, UniProt Q9Y508) | fluorescence polarization |  | pH 7.4, 22 °C, 150 mM NaCl, labelled compound | Kd | ~40 µM
CCCCCCCC(=O)OCC(COP(=O)(O)OC1C(O)C(O)C(OP(=O)(O)O)C(OP(=O)(O)O)C1O)OC(=O)CCCCCCC (stereo not drawn) | 1-phosphatidylinositol 4,5-bisphosphate phosphodiesterase delta-1, PH domain (Plcd1, Rattus norvegicus, UniProt P10688) | membrane binding, sedimentation | LUVs with PtdSer |  | Kd | 1.7 ± 0.2 µM
CC[C@@H]1C(=O)N(C)c2cnc(Nc3ccc(C(=O)NC4CCN(C)CC4)cc3OC)nc2N1C1CCCC1 | Bromodomain-containing protein 3, BD2 (BRD3, Homo sapiens, UniProt Q15059) |  |  | 10 µM | delta Tm | 5 ± 0.3 °C
Cc1c(O)cc2c(c1C)O[C@](C)(CCCC(C)C)CC2 | RAC-alpha serine/threonine-protein kinase, PH domain (AKT1, Homo sapiens, UniProt P31749, del38-52) | binding, SPR |  | PH domain, VL2 deleted | Kd | 30 ± 4 µM
CCCn1c(=O)c2[nH]c(-c3ccc(OCC(=O)NCCNC(=O)CCCCCNC(=O)COc4ccc(/C=C/C5=[N+]6C(=Cc7ccc(-c8cccs8)n7[B-]6(F)F)C=C5)cc4)cc3)nc2n(CCC)c1=O | ADORA1 (Homo sapiens, UniProt P30542) | NanoBRET saturation binding | HEK293T expressing NanoLuc-tagged receptor | 1 h, 37 °C | Kd | 0.147 ± 0.072 µM
C[C@@]12CC[C@@H]3[C@H](CCC4=CC(=O)CC[C@]43C)[C@@H]1CC[C@@H]2C(=O)Cn1cnc2c(=S)nc[nH]c21 | NR3C1 (Homo sapiens, UniProt P04150) | nuclear translocation, agonist, enzyme fragment complementation |  |  | EC50 | > 9 µM
CCN1CCN(Cc2ccc(NC(=O)c3ccc(C)c(Oc4ncnc5cc(OC)c(OC)cc45)c3)cc2C(F)(F)F)CC1 | MAPK14 (Homo sapiens, UniProt Q16539) | KINOMEscan competition binding |  | 1.0 µM | residual probe binding | 0%

For quick reference, copied from above:
Structure (SMILES) | tested on | test | system | setting | measurement | result
O=C1c2cccc3cc([N+](=O)[O-])cc(c23)C(=O)N1NCCO | Beta-nerve growth factor (Mus musculus, UniProt P01139) | binding, SPR |  | 25 °C | Kd | 49.7 µM
Nc1ncnc2c1ncn2[C@@H]1O[C@H](COP(=O)(O)OP(=O)(O)OC[C@H]2OC(O)[C@H](O)[C@@H]2O)[C@@H](O)[C@H]1O (stereo partly drawn) | RNF114 (Homo sapiens, UniProt Q9Y508) | fluorescence polarization |  | pH 7.4, 22 °C, 150 mM NaCl, labelled compound | Kd | ~40 µM
